{"data": "Measured values of several laboratories", "note": "Parts stem from different laboratories: compare values within a part only.", "UniProt Q13188, sequence (whole entry, looked up)": "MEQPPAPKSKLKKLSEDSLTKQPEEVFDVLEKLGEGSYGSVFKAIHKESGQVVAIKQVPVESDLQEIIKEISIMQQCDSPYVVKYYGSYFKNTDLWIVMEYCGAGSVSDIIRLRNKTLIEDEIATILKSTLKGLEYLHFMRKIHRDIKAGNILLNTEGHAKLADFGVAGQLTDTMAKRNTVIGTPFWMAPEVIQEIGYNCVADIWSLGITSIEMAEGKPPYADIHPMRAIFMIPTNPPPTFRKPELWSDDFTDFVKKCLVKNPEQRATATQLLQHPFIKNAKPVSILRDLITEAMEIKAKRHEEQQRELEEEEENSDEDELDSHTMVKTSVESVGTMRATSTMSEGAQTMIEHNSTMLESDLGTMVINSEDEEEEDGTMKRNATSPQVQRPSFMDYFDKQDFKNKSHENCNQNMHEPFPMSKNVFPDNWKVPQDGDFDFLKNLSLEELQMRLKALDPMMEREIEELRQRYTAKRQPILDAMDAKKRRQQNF", "UniProt P35916, sequence (whole entry, looked up)": "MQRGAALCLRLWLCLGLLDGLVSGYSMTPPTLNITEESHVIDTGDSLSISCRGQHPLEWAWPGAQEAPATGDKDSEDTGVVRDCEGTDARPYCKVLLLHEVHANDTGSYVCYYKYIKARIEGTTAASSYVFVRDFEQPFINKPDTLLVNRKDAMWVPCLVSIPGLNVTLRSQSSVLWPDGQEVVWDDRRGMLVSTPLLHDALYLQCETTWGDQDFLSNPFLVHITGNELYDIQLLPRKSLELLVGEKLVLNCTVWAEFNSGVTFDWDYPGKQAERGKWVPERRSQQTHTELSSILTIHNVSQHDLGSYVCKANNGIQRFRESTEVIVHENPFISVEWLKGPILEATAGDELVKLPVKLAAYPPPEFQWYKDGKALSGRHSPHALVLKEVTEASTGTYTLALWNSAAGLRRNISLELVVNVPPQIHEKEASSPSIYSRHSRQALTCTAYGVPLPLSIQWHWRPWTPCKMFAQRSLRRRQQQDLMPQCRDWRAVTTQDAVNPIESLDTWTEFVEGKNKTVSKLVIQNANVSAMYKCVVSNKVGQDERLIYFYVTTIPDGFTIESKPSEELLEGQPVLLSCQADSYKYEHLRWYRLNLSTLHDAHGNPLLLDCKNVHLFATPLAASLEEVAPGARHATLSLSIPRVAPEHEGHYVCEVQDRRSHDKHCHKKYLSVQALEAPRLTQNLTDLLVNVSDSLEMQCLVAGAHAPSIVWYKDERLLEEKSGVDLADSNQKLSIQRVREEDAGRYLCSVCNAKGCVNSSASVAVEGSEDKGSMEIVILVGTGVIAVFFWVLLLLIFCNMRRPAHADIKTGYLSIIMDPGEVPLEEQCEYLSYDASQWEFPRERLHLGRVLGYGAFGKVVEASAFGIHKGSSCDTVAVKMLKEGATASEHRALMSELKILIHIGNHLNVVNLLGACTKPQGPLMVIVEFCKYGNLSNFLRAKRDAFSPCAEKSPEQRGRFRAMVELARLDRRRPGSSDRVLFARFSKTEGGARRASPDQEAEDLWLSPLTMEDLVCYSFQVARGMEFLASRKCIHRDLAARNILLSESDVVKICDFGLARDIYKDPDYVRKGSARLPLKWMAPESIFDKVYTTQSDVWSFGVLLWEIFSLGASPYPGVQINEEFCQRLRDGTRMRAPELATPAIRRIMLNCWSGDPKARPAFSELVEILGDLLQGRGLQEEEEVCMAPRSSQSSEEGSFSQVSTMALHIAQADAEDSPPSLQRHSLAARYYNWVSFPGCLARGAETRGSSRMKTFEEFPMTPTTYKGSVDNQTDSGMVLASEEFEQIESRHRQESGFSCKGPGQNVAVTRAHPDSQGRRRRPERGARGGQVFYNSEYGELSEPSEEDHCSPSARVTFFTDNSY", "UniProt Q99683, sequence (whole entry, looked up)": "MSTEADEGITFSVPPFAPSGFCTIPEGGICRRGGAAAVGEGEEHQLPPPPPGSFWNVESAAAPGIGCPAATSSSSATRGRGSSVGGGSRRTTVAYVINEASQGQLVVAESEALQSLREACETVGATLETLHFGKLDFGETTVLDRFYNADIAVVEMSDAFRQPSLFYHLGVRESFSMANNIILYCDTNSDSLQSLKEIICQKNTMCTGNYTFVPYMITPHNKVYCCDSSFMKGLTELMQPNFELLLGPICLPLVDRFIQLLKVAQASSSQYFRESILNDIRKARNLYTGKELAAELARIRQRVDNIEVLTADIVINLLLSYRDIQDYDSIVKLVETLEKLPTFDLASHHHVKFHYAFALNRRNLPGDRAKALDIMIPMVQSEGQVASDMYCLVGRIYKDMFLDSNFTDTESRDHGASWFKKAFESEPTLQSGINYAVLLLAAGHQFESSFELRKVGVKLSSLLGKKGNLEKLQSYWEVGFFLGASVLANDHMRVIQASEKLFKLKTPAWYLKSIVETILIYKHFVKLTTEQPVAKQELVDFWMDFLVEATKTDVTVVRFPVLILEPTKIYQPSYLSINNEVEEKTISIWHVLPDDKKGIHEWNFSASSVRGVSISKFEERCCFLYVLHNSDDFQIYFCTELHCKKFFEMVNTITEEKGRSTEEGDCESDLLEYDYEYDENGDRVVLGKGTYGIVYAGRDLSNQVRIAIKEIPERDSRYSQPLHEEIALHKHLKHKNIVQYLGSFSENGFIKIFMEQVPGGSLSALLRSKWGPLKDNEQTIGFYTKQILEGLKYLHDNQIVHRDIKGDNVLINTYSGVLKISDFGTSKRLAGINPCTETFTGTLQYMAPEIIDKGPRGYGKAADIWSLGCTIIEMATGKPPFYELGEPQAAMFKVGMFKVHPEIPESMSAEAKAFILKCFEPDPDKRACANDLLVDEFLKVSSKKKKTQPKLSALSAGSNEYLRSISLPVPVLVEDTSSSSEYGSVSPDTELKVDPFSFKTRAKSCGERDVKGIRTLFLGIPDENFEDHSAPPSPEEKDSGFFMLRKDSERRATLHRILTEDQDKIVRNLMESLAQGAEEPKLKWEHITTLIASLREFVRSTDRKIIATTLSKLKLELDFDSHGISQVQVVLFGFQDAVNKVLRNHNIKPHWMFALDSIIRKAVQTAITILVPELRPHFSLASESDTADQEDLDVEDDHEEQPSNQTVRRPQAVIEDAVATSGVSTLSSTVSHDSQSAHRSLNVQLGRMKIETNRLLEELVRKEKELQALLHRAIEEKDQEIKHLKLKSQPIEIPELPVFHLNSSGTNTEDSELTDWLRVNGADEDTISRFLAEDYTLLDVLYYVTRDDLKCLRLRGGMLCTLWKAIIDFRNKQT", "UniProt Q8TF76, sequence (whole entry, looked up)": "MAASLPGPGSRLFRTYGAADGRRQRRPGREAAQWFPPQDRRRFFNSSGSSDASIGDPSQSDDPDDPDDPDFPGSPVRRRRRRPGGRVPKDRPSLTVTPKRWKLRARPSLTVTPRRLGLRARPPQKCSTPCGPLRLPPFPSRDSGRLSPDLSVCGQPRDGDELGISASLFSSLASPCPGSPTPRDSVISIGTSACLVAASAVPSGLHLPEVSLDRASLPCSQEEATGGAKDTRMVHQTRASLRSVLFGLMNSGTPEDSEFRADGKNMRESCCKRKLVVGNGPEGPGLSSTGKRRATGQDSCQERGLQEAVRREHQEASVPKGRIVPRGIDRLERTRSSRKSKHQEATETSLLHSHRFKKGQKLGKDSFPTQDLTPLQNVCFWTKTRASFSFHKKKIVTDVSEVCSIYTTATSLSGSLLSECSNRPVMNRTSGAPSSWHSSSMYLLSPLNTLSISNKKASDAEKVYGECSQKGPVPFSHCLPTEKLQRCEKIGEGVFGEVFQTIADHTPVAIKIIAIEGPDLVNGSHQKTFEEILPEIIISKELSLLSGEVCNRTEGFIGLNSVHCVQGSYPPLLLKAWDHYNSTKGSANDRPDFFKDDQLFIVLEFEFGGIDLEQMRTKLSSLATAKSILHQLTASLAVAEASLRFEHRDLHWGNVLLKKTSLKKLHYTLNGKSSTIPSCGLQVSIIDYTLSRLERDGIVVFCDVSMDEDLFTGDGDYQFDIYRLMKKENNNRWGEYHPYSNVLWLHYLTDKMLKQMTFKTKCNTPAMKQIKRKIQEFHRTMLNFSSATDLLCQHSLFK", "UniProt P16234, sequence (whole entry, looked up)": "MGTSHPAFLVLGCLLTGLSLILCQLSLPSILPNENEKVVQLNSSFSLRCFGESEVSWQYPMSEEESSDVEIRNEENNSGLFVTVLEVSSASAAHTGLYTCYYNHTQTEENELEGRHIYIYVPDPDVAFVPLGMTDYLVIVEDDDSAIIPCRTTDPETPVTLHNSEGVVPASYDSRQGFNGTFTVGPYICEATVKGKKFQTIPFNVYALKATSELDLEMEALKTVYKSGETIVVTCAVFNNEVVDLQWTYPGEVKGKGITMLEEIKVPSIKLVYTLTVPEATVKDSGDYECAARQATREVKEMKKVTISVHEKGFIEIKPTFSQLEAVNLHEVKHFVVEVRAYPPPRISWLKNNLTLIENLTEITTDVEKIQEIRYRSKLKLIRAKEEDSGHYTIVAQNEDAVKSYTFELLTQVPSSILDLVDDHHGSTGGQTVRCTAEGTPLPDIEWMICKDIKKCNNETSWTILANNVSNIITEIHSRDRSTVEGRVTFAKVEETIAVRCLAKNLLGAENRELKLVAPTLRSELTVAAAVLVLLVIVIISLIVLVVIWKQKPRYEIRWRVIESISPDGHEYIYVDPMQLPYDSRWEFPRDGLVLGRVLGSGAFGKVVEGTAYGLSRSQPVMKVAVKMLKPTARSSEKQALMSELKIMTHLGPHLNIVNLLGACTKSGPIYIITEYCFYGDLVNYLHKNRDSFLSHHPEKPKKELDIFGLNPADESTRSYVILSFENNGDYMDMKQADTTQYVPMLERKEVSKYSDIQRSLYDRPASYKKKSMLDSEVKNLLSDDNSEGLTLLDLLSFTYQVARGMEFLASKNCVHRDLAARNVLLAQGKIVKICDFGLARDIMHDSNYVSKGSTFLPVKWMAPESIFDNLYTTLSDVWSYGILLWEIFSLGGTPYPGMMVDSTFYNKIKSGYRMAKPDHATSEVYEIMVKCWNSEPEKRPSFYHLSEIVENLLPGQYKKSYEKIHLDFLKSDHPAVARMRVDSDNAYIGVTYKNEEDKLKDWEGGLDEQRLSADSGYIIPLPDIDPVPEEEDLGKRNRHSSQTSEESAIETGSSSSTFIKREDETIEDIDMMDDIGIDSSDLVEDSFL"}
{"data": "Study 1", "SMILES": "O=C(Nc1cnn(-c2csc(C(=O)NC3COC3)c2)c1)Nc1ccccc1Cl", "concentration": "5 µM"}
{"target": "RAF1 (Homo sapiens, UniProt P04049)", "read-out": "enzyme activity", "reference": "untreated control", "remaining activity [%]": 82}
{"target": "STK3 (Homo sapiens, UniProt Q13188)", "read-out": "enzyme activity", "reference": "untreated control", "remaining activity [%]": 116}
{"target": "AKT1 (Homo sapiens, UniProt P31749)", "read-out": "enzyme activity", "reference": "untreated control", "remaining activity [%]": 94}
{"target": "FYN (Homo sapiens, UniProt P06241)", "read-out": "enzyme activity", "reference": "untreated control", "remaining activity [%]": 91.5}
{"target": "BMX (Homo sapiens, UniProt P51813)", "read-out": "enzyme activity", "reference": "untreated control", "remaining activity [%]": 99.4}
{"target": "CDC42BPG (Homo sapiens, UniProt Q6DT37)", "read-out": "kinase activity", "technique": "kinase panel profiling", "remaining activity [%]": 87}
{"target": "JAK1 (Homo sapiens, UniProt P23458)", "read-out": "enzyme activity", "reference": "untreated control", "remaining activity [%]": 94.4}
{"target": "IRAK4 (Homo sapiens, UniProt Q9NWZ3)", "read-out": "enzyme activity", "reference": "untreated control", "remaining activity [%]": 88.1}
{"target": "GRK4 (Homo sapiens, UniProt P32298)", "read-out": "enzyme activity", "reference": "untreated control", "remaining activity [%]": 93.2}
{"target": "NEK2 (Homo sapiens, UniProt P51955)", "read-out": "enzyme activity", "reference": "untreated control", "remaining activity [%]": 102}
{"target": "NUAK2 (Homo sapiens, UniProt Q9H093)", "read-out": "enzyme activity", "reference": "untreated control", "remaining activity [%]": 97.6}
{"data": "Study 2", "Compound": "O=C1NC(=O)c2c1c1c3ccccc3[nH]c1n1cncc21", "read-out": "enzyme activity", "mode": "inhibitor", "concentration": "0.5 µM", "reference": "control"}
{"target": "PDGFRA (Homo sapiens, UniProt P16234)", "remaining activity [%]": 84.4}
{"target": "PIM3 (Homo sapiens, UniProt Q86V86)", "remaining activity [%]": 4.48}
{"target": "STK3 (Homo sapiens, UniProt Q13188)", "remaining activity [%]": 41}
{"target": "TTK (Homo sapiens, UniProt P33981)", "remaining activity [%]": 79}
{"target": "NTRK1 (Homo sapiens, UniProt P04629)", "remaining activity [%]": 89.8}
{"target": "PTK2 (Homo sapiens, UniProt Q05397)", "remaining activity [%]": 56.9}
{"target": "ZAP70 (Homo sapiens, UniProt P43403)", "remaining activity [%]": 87.8}
{"target": "Cyclin-dependent kinase 6, with cyclin D1 (CDK6, Homo sapiens, UniProt Q00534)", "remaining activity [%]": 65.7}
{"target": "HASPIN (Homo sapiens, UniProt Q8TF76)", "remaining activity [%]": 33.5}
{"target": "SRPK2 (Homo sapiens, UniProt P78362)", "remaining activity [%]": 80.2}
{"target": "TSSK1B (Homo sapiens, UniProt Q9BXA7)", "remaining activity [%]": 84.4}
{"target": "BRAF (Homo sapiens, UniProt P15056)", "remaining activity [%]": 101}
{"target": "SYK (Homo sapiens, UniProt P43405)", "remaining activity [%]": 84.9}
{"data": "Study 3", "SMILES": "C[C@@H](c1cccc(C#N)c1)n1cc(Cl)cc(C(N)=O)c1=N", "technique": "competition with immobilised ligand", "concentration": "1 µM"}
{"target": "EGFR (Homo sapiens, UniProt P00533, del752-759)", "read-out": "cell-free assay", "remaining binding [%]": 100}
{"target": "PRKCD (Homo sapiens, UniProt Q05655)", "read-out": "cell-free assay", "remaining binding [%]": 77}
{"target": "Tyrosine-protein kinase ABL1, phosphorylated (ABL1, Homo sapiens, UniProt P00519, T315I)", "read-out": "cell-free assay", "remaining binding [%]": 0}
{"target": "MAP3K5 (Homo sapiens, UniProt Q99683)", "read-out": "cell-free assay", "remaining binding [%]": 100}
{"target": "FGFR3 (Homo sapiens, UniProt P22607)", "read-out": "cell-free assay", "remaining binding [%]": 100}
{"target": "FES (Homo sapiens, UniProt P07332)", "read-out": "cell-free assay", "remaining binding [%]": 77}
{"target": "FLT4 (Homo sapiens, UniProt P35916)", "read-out": "cell-free assay", "remaining binding [%]": 89}
{"target": "CDKL3 (Homo sapiens, UniProt Q8IVW4)", "read-out": "binding", "remaining binding [%]": 85}
{"target": "Cyclin-dependent kinase 4, with cyclin D3 (CDK4, Homo sapiens, UniProt P11802)", "read-out": "cell-free assay", "remaining binding [%]": 91}
{"target": "WEE1 (Homo sapiens, UniProt P30291)", "read-out": "cell-free assay", "remaining binding [%]": 100}
{"target": "Ribosomal protein S6 kinase alpha-1, N-terminal kinase domain (RPS6KA1, Homo sapiens, UniProt Q15418)", "read-out": "cell-free assay", "remaining binding [%]": 100}
{"target": "MAP2K3 (Homo sapiens, UniProt P46734)", "read-out": "cell-free assay", "remaining binding [%]": 67}
{"target": "ACVR1 (Homo sapiens, UniProt Q04771)", "read-out": "cell-free assay", "remaining binding [%]": 96}
{"target": "MET (Homo sapiens, UniProt P08581)", "read-out": "cell-free assay", "remaining binding [%]": 93}
{"target": "Ribosomal protein S6 kinase alpha-4, C-terminal kinase domain (RPS6KA4, Homo sapiens, UniProt O75676)", "read-out": "cell-free assay", "remaining binding [%]": 80}
{"target": "STK25 (Homo sapiens, UniProt O00506)", "read-out": "cell-free assay", "remaining binding [%]": 100}
{"data": "Study 4", "organism": "Sarcocystis neurona", "read-out": "parasite activity", "concentration": "10 µM", "time": "96 h"}
{"SMILES": "C[C@@H]1CN(CCCn2c3ccccc3c3ccccc32)C[C@H](C)N1", "activity class": "inactive"}
{"SMILES": "CN(C)CCC=C1c2ccccc2COc2ccccc21", "activity class": "inactive"}
{"SMILES": "Nc1ccn([C@H]2CC[C@@H](CO)O2)c(=O)n1", "activity class": "inactive"}
{"SMILES": "CCOC(=O)CCC(=O)O[C@H]1[C@H](O[C@@H]2[C@@H](C)[C@H](O[C@H]3C[C@@](C)(OC)[C@@H](O)[C@H](C)O3)[C@@H](C)C(=O)O[C@H](CC)[C@@](C)(O)[C@H](O)[C@@H](C)C(=O)[C@H](C)C[C@@]2(C)O)O[C@H](C)C[C@@H]1N(C)C", "activity class": "inactive"}
{"SMILES": "O=C(C1CCCCC1)N1CC(=O)N2CCc3ccccc3C2C1 (centres unmarked)", "activity class": "inactive"}
{"SMILES": "O=C1CCC(N2C(=O)c3ccccc3C2=O)C(=O)N1 (centres unmarked)", "activity class": "inactive"}
{"SMILES": "C[C@@H]1C[C@H]2[C@@H]3CCC4=CC(=O)C=C[C@]4(C)[C@@]3(F)[C@@H](O)C[C@]2(C)[C@H]1C(=O)CO", "activity class": "inactive"}
